Experimental data of several laboratories.
Every numbered part comes from another study and shows a few of its results, in no order. Substitutions count along the parent as printed.

Study 1 — target: CCNB2, cyclin fold, Cln2 fusion (human); technique: yeast growth competition, sequencing; sample: yeast; notes: weak parent motif; reference: not given; direction: higher = stronger binding
Parent: SAMHD1 docking peptide (human); ASKSRVQLFKDDP
Change | normalised enrichment score
ASKSRVYLFKDDP [Q7Y] | 0.269
ASKSRVQQFKDDP [L8Q] | 0.0914
ASKSRVQLFKADP [D11A] | 0.473
ASKSRSQLFKDDP [V6S] | -0.203
ASKSHVQLFKDDP [R5H] | -0.0616
ASKVRVQLFKDDP [S4V] | 0.86
ASKSRVQLFCDDP [K10C] | 0.321
ASKSRVQLFRDDP [K10R] | 0.315
ASKSRVQLTKDDP [F9T] | -0.0303
ASKSRVQKFKDDP [L8K] | 0.432
ASKSRVQLDKDDP [F9D] | 0.781
ASKSRVQDFKDDP [L8D] | 0.291
ASKSRTQLFKDDP [V6T] | 0.341
ARKSRVQLFKDDP [S2R] | 0.233
ASKSRVPLFKDDP [Q7P] | 0.0114
ASKSRFQLFKDDP [V6F] | 0.418
ASKSRVQCFKDDP [L8C] | 0.328
AGKSRVQLFKDDP [S2G] | 0.0678
ASKSRVMLFKDDP [Q7M] | -0.383
ASKSRVQLIKDDP [F9I] | 0.819
ASKSRVQLFKDEP [D12E] | 0.238
ASKSRVQLFKDYP [D12Y] | 0.572

Study 2 — technique: protein binding microarray; molecule type: double-stranded DNA, one strand shown; sample: in vitro; concentration: not given; reference: not given; direction: higher = stronger binding
Target: Histone acetyltransferase KAT6A, winged helix 2, GST fusion (KAT6A, Homo sapiens, UniProt Q92794, residues 85-181)
Notes: 8-mer, flanks averaged, mean of 2 arrays, mostly near background
Target sequence (chain): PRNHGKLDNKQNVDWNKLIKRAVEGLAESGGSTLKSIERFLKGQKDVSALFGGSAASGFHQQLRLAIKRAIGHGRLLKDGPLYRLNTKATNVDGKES
Strand | E-score
AGATTCCT | -0.0244
GTACACCA | -0.195
AGAGGTGG | -0.0693
AAGGATTA | -0.0231
CTATTGCA | -0.06
AACAGTAC | -0.0676
GGTCCTAC | -0.00172
AGTCGTAC | -0.279
AGAAGCGC | 0.126
ACGCATTA | -0.0023
GCACTAAA | 0.138
ACTCAGCC | -0.0471
ATGTAGAA | -0.145
AAGCAAAT | 0.0734
AGATTATA | -0.0643
CAGCGGGC | 0.068
AACAGTGA | -0.114

Study 3 — technique: universal PBM; molecule type: double-stranded DNA, one strand shown; sample: in vitro; concentration: not given; direction: higher = stronger binding
Target: Sal-like protein 4, full length isoform B (SALL4, Homo sapiens, UniProt Q9UJQ4-2, residues 1-616)
Notes: 8-mer, flanks averaged, mean of replicates
Strand | E-score
GAAAATTA | 0.336
AAGCCTGG | -0.277
GGGGTTTA | -0.0532
GAGTTAGC | -0.0661
TTTGCAAA | 0.074
AGGACACC | -0.237
ACAGAGAA | -0.0283
CGGGTCGA | -0.334
GTCTCTAA | 0.017
AGCACCCA | -0.118
CACTTATA | 0.275
GGCCTCAC | -0.247
GAGTTCGC | -0.285

Mixed results
Substance | target | test | test system | conditions | how to read | endpoint | result
PhoQ, residues 284 288 289 292 302 303 SLKLQV | PhoP, residues 12 14 15 18 19 QQAYL (Escherichia coli, UniProt P23836) | Sort-seq, refers to: YFP reporter | E. coli | PhoQ-PhoP variant library, added: 10 µM Mg2+ | reference: high Mg2+ state, higher = stronger signaling | fold induction | 13.4

Repeated from above (study 1):
Change | normalised enrichment score
ASKSHVQLFKDDP [R5H] | -0.0616
ASKVRVQLFKDDP [S4V] | 0.86
ASKSRVQLFCDDP [K10C] | 0.321
ASKSRVQLFRDDP [K10R] | 0.315
ASKSRVQLTKDDP [F9T] | -0.0303
ASKSRVQKFKDDP [L8K] | 0.432
ASKSRVQLDKDDP [F9D] | 0.781
ASKSRVQDFKDDP [L8D] | 0.291
ASKSRTQLFKDDP [V6T] | 0.341
